Results from different studies.
Every numbered part comes from another study and shows a few of its results, in no order. Positions count from the first letter of the parent shown.

Sample 1 — technique: competition protein-binding microarray; form: double-stranded DNA, one strand shown; medium: in vitro; tested at: 2 µM; together with: Cbf1 competitor, 0.05 µM; reading: higher = stronger binding
Target: Phosphate system positive regulatory protein PHO4, full length, GST-tagged (PHO4, Saccharomyces cerevisiae, UniProt P07270, residues 1-312)
Notes: whole 60-bp probe, lowest competitor level
Target sequence (chain): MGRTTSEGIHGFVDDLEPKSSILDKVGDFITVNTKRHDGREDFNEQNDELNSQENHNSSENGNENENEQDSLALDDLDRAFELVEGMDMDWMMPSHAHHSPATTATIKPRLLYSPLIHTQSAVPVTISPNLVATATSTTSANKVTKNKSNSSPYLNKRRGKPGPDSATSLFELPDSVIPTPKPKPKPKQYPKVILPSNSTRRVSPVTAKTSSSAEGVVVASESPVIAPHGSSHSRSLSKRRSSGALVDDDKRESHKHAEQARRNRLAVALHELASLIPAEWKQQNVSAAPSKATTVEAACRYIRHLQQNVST
For `GTCTTGTCTCATTGTAGAGTGGGTGTCCCCACTTCAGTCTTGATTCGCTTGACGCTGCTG`, the fluorescence intensity was 5050 a.u.
The fluorescence intensity of `TGCGCAACAACTTGACGGGTGGGTGTATGTCTAGAAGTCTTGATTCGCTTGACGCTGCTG` is reported as 5240 a.u.
For `CTTCTGTAAATTTGTGTTGTGGGTGGACGCGCCCCGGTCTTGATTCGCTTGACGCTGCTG`, the fluorescence intensity was 4520 a.u.
With `CTAACGAAGGTTTGTCACGACACTTACAAGCCAAGTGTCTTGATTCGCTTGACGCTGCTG` the fluorescence intensity was 4690 a.u.
With `TCGCGTTTCTCCAGCCACGTGCTTTTAACCTAAATAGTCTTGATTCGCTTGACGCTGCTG` the fluorescence intensity was 19700 a.u.
For `CGGGGTTAAGTTTTTCACGTGATATGCTTGCAGCAGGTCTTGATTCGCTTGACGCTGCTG`, the fluorescence intensity was 12200 a.u.
`CGGGGTTAAGTTTGTCACTACACTTGCTTGCAGCAGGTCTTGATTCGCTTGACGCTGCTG` gave a fluorescence intensity of 3840 a.u.
With `CGTCCTAGTGATTGTCACTTAACTTCCATGAGGAAGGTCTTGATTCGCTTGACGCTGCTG` the fluorescence intensity was 4070 a.u.
For `ATCGTCAAAAGAGTAAACGTGCCGAGCAAAATCATCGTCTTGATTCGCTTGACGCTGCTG`, the fluorescence intensity was 14300 a.u.
For `AAAGCGGTAATTTTTCACGTGCCATCACATATCTATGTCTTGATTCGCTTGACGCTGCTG`, the fluorescence intensity was 14100 a.u.
The fluorescence intensity of `GACTCATTTCTTAGTGACGTTGGTGACAGGAATATGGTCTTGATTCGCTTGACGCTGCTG` is reported as 4740 a.u.
With `CTTTCCCGATCTTGCCAGGTGGGTGTAGCACATTTGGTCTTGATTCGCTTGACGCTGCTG` the fluorescence intensity was 6020 a.u.
The fluorescence intensity of `CATACCCAACCTTGTCACTCTACTTAAGATATTTGTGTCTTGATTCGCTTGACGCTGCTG` is reported as 4260 a.u.
`GTCTTGTCTCATTGGACCGTGGGTGTCCCCACTTCAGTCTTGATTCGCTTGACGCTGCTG` gave a fluorescence intensity of 8220 a.u.
With `TCTTGGTTCCAAAGCAGCGTGTTGAAGAGAGGAACCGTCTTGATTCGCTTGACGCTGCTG` the fluorescence intensity was 5450 a.u.
`CTTCTGTAAATTTGGACGGTGGGTGGACGCGCCCCGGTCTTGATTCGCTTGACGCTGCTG` has a fluorescence intensity of 4290 a.u.
`TGGACCTCTGACGGTAACGTGAAGAGCAATTTTTTCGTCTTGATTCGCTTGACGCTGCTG` has a fluorescence intensity of 5170 a.u.
For `GTCTTGTCTCATTGTCCAGTGGGTGTCCCCACTTCAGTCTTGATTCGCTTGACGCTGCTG`, the fluorescence intensity was 4400 a.u.
`GGGCAAAACTATCCGCACGCTGAAACAGGCTGATGAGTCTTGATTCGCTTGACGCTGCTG` gave a fluorescence intensity of 7650 a.u.

Sample 2 — technique: protein-binding microarray; form: double-stranded DNA, one strand shown; medium: in vitro; tested at: 2200 nM top; notes: 60-bp whole probe; together with: salmon DNA 0.4 mg/ml; reference: random background probes; reading: higher = stronger binding; shared flanks, not repeated: GCCTAGCAC … GTCTTGATTCGCTTGACGCTGCTG
Target: Interferon regulatory factor 7, full length, phosphomimetic (IRF7, Homo sapiens, UniProt Q92985, residues 1-503, S471D/S472D/S475D/S476D/S477D/S483D/S484D/S487D)
Residues (chain): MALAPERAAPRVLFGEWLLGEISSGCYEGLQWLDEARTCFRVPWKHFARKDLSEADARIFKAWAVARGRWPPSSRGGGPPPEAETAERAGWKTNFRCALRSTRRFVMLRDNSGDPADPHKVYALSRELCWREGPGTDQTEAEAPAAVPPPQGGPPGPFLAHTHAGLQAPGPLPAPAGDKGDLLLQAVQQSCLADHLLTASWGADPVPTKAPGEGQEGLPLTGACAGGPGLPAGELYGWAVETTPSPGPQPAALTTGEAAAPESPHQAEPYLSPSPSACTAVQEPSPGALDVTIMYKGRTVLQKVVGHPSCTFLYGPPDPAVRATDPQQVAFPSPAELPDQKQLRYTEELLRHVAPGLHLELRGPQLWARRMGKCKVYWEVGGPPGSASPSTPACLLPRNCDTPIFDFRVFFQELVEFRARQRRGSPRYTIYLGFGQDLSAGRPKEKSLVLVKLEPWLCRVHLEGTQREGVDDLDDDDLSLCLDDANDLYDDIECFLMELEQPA
For `CTAGGTATCGACTATCGGTTAGTGCTA`, “fitted relative affinity” read 0.347 z-score.
`GACGGTTTCGGTTCGGGGACGTGCTAG`: “fitted relative affinity” 13.4 z-score.
Under “fitted relative affinity”, `TCATTTTTTTTTTTGGAACTGTGCTAG` is recorded as 1.67 z-score.
Under “fitted relative affinity”, `TCAGGTATTTTTTTGTAACTGTGCTAG` is recorded as 0.547 z-score.
`GACGATTTCAGACTGAAGACGTGCTAG` — result for “fitted relative affinity”: 0.0217 z-score.
`GTAGATCTCAGTCTCGATTAGTGCTAG` — result for “fitted relative affinity”: 0.516 z-score.
`GACGGTTTCCTTTTCCTGACGTGCTAG`: “fitted relative affinity” 5.66 z-score.
`TTAAATATCGGGTTTCGATTAGTGCTA`: “fitted relative affinity” 2.58 z-score.
Under “fitted relative affinity”, `TTAGGTATCCTTCCCCTTTAGTGCTAG` is recorded as 1.63 z-score.
Under “fitted relative affinity”, `TTAGAACTCGGGTTTCGATTAGTGCTA` is recorded as 2.68 z-score.
`ATAGGTCTCCTTTTCCTTTAGTGCTAG` — result for “fitted relative affinity”: 2.01 z-score.
`GCCCCTCTCCTCTCAGGAGCTGTGCTA` — result for “fitted relative affinity”: 0.00704 z-score.
For `ACTTCATTGCATATAGAAAAGTGCTAG`, “fitted relative affinity” read 0.462 z-score.
Under “fitted relative affinity”, `TTAGAACTGAGACGGGATTAGTGCTAG` is recorded as -0.713 z-score.
`GCCGGTTTCCTTCTCCTGACGTGCTAG` — result for “fitted relative affinity”: 4 z-score.
Under “fitted relative affinity”, `GGAGGAGCGGGACTGCCACCGTGCTAG` is recorded as -1.01 z-score.
Under “fitted relative affinity”, `TTAGATTTCAGTATCGAGTAGTGCTAG` is recorded as 0.494 z-score.
Under “fitted relative affinity”, `TCATGCCTGTTTTTCCCACTGTGCTAG` is recorded as 1.93 z-score.
`GGTCTTCTGGGCTGTTTGGTCGTGCTA`: “fitted relative affinity” 0.00602 z-score.

Sample 3 — target: CCNF, cyclin fold, Cln2 fusion (human); technique: yeast growth competition, sequencing; medium: yeast; notes: strong parent motif; reference: not given; reading: higher = stronger binding
Starting sequence: CABLES2 docking peptide (human); ICAKRSLCAAFSV
For `ICAKRALCAAFSV [S6A]`, “normalised enrichment score” read 1.55.
`ICAKRSLCAAFSA [V13A]`: “normalised enrichment score” 2.6.
`ICAKRSLAAAFSV [C8A]` — result for “normalised enrichment score”: 4.23.
Under “normalised enrichment score”, `ACAKRSLCAAFSV [I1A]` is recorded as 1.78.
For `ICAKRSLCAAFAV [S12A]`, “normalised enrichment score” read 3.08.

Sample 4 — technique: protein binding microarray; form: double-stranded DNA, one strand shown; medium: in vitro; tested at: not given; reference: not given; reading: higher = stronger binding
Target: Histone acetyltransferase KAT6A, winged helix 1, GST fusion (KAT6A, Homo sapiens, UniProt Q92794, residues 1-85)
Notes: 8-mer, flanks averaged, mean of 2 arrays, mostly near background
Construct (chain): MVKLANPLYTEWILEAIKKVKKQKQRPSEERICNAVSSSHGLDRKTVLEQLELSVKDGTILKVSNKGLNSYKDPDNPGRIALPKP
For `TACTCTGA`, the E-score was -0.0454.
With `CGGGGCTC` the E-score was 0.223.
For `CGAGGAGA`, the E-score was -0.137.
With `ACTACTTG` the E-score was -0.0875.
The E-score of `CGCATGTA` is reported as 0.222.
For `ATATATAT`, the E-score was -0.0565.
The E-score of `GCAAAATA` is reported as -0.166.
`CTCCCTAA` gave an E-score of -0.0269.
With `ACCGATCA` the E-score was 0.0925.
`GCCGGAGA` has an E-score of 0.164.
With `TGAGATCA` the E-score was -0.0663.
`TGCTCCAA` gave an E-score of -0.313.
`CCCTCCAA` has an E-score of -0.0804.
`CGGAAAAA` gave an E-score of 0.186.
`AGTACGCA` gave an E-score of 0.11.
The E-score of `CCCGCGGG` is reported as 0.446.

For quick reference, copied from above (sample 1):
`GTCTTGTCTCATTGGACCGTGGGTGTCCCCACTTCAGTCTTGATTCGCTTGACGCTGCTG` gave a fluorescence intensity of 8220 a.u.
With `CTAACGAAGGTTTGTCACGACACTTACAAGCCAAGTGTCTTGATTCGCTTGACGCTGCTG` the fluorescence intensity was 4690 a.u.
For `GTCTTGTCTCATTGTCCAGTGGGTGTCCCCACTTCAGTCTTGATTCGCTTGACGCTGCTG`, the fluorescence intensity was 4400 a.u.
